{"data": "Measurements of several laboratories", "note": "Every numbered part comes from another study and shows a few of its results, in no order. Several values in a cell are separate wells, animals, samples, runs or records.", "UniProt Q13557, sequence (whole entry, looked up)": "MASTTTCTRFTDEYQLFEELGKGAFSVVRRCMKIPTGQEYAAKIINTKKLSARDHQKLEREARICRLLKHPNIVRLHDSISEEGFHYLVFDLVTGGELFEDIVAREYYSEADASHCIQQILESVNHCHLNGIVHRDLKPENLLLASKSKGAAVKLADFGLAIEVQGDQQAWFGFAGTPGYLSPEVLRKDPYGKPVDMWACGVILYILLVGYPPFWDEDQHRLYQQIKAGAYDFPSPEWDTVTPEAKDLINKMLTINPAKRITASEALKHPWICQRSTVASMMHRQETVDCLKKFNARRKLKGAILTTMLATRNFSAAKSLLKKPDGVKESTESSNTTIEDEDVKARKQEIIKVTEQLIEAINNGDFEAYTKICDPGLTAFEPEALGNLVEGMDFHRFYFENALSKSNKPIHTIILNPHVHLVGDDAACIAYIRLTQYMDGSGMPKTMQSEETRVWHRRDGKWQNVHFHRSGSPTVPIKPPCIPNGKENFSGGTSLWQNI", "UniProt P35626, sequence (whole entry, looked up)": "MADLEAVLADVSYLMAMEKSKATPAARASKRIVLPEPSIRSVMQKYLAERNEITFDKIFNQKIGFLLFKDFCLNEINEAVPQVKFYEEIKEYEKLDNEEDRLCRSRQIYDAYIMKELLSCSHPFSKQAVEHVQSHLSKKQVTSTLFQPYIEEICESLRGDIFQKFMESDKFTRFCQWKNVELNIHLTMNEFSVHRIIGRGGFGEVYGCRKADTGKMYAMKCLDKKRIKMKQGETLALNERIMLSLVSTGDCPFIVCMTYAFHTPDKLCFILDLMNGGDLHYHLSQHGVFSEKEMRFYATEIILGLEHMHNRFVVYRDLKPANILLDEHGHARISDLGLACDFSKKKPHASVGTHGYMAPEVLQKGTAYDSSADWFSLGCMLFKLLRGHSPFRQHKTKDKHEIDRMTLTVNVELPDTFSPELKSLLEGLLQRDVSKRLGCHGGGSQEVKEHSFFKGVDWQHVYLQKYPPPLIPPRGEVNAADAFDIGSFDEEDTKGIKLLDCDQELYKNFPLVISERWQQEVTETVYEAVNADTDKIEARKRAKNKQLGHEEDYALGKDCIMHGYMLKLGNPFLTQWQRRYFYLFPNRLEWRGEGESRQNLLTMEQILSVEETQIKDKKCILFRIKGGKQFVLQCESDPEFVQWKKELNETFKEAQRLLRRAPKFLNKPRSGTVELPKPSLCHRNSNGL", "UniProt P45984, sequence (whole entry, looked up)": "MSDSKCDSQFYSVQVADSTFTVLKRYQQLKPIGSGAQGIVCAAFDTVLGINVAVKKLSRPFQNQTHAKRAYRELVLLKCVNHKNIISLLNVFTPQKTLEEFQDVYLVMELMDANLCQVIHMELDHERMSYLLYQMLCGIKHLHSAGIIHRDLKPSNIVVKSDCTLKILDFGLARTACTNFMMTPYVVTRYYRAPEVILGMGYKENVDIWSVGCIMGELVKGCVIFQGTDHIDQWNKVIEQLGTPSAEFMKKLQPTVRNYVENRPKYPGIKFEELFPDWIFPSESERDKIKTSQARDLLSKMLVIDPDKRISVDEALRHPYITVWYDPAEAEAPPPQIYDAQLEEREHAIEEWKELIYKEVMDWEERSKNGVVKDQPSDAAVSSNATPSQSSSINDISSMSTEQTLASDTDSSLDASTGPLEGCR", "UniProt P53355, sequence (whole entry, looked up)": "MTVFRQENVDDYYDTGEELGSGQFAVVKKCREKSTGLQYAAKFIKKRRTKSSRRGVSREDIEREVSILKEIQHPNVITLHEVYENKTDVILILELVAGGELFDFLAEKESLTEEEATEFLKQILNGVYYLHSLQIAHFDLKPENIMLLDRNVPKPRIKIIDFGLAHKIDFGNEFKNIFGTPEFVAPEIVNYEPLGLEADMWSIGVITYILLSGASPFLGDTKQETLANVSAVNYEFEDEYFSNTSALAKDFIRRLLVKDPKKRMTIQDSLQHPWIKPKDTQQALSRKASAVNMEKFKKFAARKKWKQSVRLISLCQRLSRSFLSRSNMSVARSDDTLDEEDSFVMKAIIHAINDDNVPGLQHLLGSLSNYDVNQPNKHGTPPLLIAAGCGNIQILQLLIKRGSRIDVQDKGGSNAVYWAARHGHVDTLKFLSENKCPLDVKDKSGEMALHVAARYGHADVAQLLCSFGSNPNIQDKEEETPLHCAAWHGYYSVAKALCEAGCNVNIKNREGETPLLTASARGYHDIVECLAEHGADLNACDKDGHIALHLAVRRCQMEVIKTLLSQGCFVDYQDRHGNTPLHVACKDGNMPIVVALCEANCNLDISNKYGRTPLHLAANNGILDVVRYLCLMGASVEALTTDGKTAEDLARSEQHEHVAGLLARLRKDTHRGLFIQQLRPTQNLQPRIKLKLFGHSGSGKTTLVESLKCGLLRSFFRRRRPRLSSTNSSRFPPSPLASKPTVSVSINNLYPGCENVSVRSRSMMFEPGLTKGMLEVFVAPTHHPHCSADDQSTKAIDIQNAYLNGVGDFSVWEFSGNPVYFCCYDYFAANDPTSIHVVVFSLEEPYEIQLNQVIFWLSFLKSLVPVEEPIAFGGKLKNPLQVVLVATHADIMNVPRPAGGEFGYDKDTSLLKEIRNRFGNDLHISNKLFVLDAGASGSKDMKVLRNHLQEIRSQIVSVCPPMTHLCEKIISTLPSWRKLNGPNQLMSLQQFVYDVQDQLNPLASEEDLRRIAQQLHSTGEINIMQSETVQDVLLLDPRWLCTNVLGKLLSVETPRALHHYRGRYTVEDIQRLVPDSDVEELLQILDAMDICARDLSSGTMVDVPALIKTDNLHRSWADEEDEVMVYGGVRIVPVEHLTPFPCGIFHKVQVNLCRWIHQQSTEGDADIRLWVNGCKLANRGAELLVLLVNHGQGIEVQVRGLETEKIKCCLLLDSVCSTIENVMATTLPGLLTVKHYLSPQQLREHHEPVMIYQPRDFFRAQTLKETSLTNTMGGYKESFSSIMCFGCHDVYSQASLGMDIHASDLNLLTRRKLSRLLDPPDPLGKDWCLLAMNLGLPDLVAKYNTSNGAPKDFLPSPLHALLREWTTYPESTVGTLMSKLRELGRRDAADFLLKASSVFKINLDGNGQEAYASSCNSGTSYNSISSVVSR", "UniProt O94804, sequence (whole entry, looked up)": "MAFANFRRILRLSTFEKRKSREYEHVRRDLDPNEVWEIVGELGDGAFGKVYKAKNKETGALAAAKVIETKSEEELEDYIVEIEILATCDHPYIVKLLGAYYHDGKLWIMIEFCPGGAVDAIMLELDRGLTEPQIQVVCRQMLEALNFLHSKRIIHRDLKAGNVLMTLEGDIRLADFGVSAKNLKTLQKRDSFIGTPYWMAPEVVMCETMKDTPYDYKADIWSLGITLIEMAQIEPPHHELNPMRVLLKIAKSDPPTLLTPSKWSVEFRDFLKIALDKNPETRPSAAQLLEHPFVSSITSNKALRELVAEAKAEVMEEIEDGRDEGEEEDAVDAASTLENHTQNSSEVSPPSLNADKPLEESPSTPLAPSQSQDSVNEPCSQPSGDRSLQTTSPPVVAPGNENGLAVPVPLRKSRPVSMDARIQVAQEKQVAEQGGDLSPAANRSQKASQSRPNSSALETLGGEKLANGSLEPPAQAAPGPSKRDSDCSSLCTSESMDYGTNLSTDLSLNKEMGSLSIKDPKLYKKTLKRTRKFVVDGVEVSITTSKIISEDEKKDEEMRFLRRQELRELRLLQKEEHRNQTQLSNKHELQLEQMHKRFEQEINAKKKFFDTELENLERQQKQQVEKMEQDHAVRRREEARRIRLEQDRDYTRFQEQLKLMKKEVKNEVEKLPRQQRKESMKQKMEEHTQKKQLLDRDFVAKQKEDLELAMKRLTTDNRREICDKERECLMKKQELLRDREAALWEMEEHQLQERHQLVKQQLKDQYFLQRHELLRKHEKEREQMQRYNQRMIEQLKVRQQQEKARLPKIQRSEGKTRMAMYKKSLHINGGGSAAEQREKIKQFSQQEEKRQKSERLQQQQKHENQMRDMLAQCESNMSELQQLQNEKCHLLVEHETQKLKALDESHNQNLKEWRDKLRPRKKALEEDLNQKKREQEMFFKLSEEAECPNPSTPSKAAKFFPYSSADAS", "UniProt P57059, sequence (whole entry, looked up)": "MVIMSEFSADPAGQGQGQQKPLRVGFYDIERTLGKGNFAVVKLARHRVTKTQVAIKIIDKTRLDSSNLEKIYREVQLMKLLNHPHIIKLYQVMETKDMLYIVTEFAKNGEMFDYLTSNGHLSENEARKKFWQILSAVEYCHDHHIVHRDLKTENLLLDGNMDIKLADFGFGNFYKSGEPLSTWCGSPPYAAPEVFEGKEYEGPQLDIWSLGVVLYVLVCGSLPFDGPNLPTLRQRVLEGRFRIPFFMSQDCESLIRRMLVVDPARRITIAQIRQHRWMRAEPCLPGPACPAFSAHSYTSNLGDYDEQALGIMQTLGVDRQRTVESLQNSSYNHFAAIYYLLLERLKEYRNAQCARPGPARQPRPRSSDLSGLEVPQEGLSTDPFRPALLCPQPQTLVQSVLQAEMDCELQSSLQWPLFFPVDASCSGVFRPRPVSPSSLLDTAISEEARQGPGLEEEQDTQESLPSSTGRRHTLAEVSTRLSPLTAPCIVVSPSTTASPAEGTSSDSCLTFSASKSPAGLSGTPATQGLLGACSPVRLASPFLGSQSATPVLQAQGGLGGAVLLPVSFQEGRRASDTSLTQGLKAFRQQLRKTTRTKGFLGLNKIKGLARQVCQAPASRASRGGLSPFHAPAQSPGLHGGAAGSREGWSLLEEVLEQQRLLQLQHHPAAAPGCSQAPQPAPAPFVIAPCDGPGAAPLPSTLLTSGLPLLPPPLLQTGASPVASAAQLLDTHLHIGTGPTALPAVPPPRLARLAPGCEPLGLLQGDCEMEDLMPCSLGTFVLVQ"}
{"data": "Block 1", "SMILES": "Nc1cnc(N2CCc3cc(S(=O)(=O)Nc4c(F)cc(Cl)cc4F)cc(N4CCCC4=O)c32)nc1", "tested at": "1 µM"}
{"target": "SIK1 (Homo sapiens, UniProt P57059)", "test": "competition binding", "remaining binding [%]": 100}
{"target": "CSNK1E (Homo sapiens, UniProt P49674)", "test": "cell-free assay, competition with immobilised ligand", "remaining binding [%]": 89}
{"target": "INSRR (Homo sapiens, UniProt P14616)", "test": "cell-free assay, competition with immobilised ligand", "remaining binding [%]": 100}
{"target": "RET (Homo sapiens, UniProt P07949, M918T)", "test": "cell-free assay, competition with immobilised ligand", "remaining binding [%]": 100}
{"target": "NEK7 (Homo sapiens, UniProt Q8TDX7)", "test": "cell-free assay, competition with immobilised ligand", "remaining binding [%]": 96}
{"target": "TEC (Homo sapiens, UniProt P42680)", "test": "cell-free assay, competition with immobilised ligand", "remaining binding [%]": 99}
{"target": "ACVR2A (Homo sapiens, UniProt P27037)", "test": "cell-free assay, competition with immobilised ligand", "remaining binding [%]": 67}
{"target": "Tyrosine-protein kinase ABL1, phosphorylated (ABL1, Homo sapiens, UniProt P00519, Y253F)", "test": "cell-free assay, competition with immobilised ligand", "remaining binding [%]": 94}
{"target": "WEE2 (Homo sapiens, UniProt P0C1S8)", "test": "cell-free assay, competition with immobilised ligand", "remaining binding [%]": 93}
{"target": "RIPK4 (Homo sapiens, UniProt P57078)", "test": "cell-free assay, competition with immobilised ligand", "remaining binding [%]": 76}
{"target": "MKNK1 (Homo sapiens, UniProt Q9BUB5)", "test": "cell-free assay, competition with immobilised ligand", "remaining binding [%]": 98}
{"target": "DAPK3 (Homo sapiens, UniProt O43293)", "test": "cell-free assay, competition with immobilised ligand", "remaining binding [%]": 83}
{"target": "CAMK2D (Homo sapiens, UniProt Q13557)", "test": "cell-free assay, competition with immobilised ligand", "remaining binding [%]": 100}
{"target": "ABL2 (Homo sapiens, UniProt P42684)", "test": "cell-free assay, competition with immobilised ligand", "remaining binding [%]": 95}
{"target": "RIOK3 (Homo sapiens, UniProt O14730)", "test": "cell-free assay, competition with immobilised ligand", "remaining binding [%]": 100}
{"data": "Block 2", "SMILES": "N#C/C(=C(/N)SC1C=CC=CC1)c1cccc(C(O)c2ccncc2)c1 (stereo not shown)", "observed": "enzyme activity", "mode": "inhibitor", "tested at": "0.5 µM", "baseline": "control"}
{"target": "CAMK2D (Homo sapiens, UniProt Q13557)", "remaining activity [%]": 108}
{"target": "IKBKB (Homo sapiens, UniProt O14920)", "remaining activity [%]": 105}
{"target": "TGFBR2 (Homo sapiens, UniProt P37173)", "remaining activity [%]": 118}
{"target": "TGFBR1 (Homo sapiens, UniProt P36897)", "remaining activity [%]": 97.3}
{"target": "cGMP-dependent protein kinase 1, isoform beta (PRKG1, Homo sapiens, UniProt Q13976)", "remaining activity [%]": 113}
{"target": "Cyclin-dependent kinase 5, with p25 (CDK5, Homo sapiens, UniProt Q00535)", "remaining activity [%]": 83.8}
{"target": "Protein kinase C beta type, isoform beta-I (PRKCB, Homo sapiens, UniProt P05771)", "remaining activity [%]": 93.2}
{"target": "GRK3 (Homo sapiens, UniProt P35626)", "remaining activity [%]": 99}
{"target": "MAPK9 (Homo sapiens, UniProt P45984)", "remaining activity [%]": 117}
{"target": "CAMKK2 (Homo sapiens, UniProt Q96RR4)", "remaining activity [%]": 82.8}
{"target": "Tyrosine-protein kinase Lyn, isoform B (LYN, Homo sapiens, UniProt P07948)", "remaining activity [%]": 97.9}
{"target": "STK10 (Homo sapiens, UniProt O94804)", "remaining activity [%]": 89.9}
{"target": "OXSR1 (Homo sapiens, UniProt O95747)", "remaining activity [%]": 91.3}
{"target": "PRKACA (Homo sapiens, UniProt P17612)", "remaining activity [%]": 97.1}
{"target": "DAPK1 (Homo sapiens, UniProt P53355)", "remaining activity [%]": 106}
{"target": "NEK2 (Homo sapiens, UniProt P51955)", "remaining activity [%]": 87.7}
{"target": "CHEK2 (Homo sapiens, UniProt O96017)", "remaining activity [%]": 98.3}
{"target": "STK39 (Homo sapiens, UniProt Q9UEW8)", "remaining activity [%]": 82.5}
{"target": "IKBKE (Homo sapiens, UniProt Q14164)", "remaining activity [%]": 97.1}
{"target": "Cyclin-dependent kinase 4, with cyclin D1 (CDK4, Homo sapiens, UniProt P11802)", "remaining activity [%]": 101}
{"data": "Block 3", "host": "human", "matrix": "microsomes or S9", "tested at": "2 µM", "time": "0.5 h"}
{"SMILES": "C[C@H]1CCCC(=O)CCC/C=C/c2cc(OCc3ccc(Cl)c(Cl)c3)cc(OCc3ccc(Cl)c(Cl)c3)c2C(=O)O1", "remaining compound": "47.5%"}
{"SMILES": "CC(C)(C)OC(=O)c1ccc(-c2c[nH]c(-c3ccc(S(C)(=O)=O)c(F)c3)n2)cc1", "remaining compound": "89.6%"}
{"SMILES": "COc1ccc2c(c1)OC1c3ccc(O)cc3OCC21 (stereo not shown)", "remaining compound": "71.8%"}
{"data": "Mixed results"}
{"Structure (SMILES)": "Ic1ccc(Nc2nc(NCCN3CCOCC3)nc(N3CCOCC3)n2)cc1", "target or system": "lysosomal β-galactosidase (human, wild type)", "system": "healthy dermal fibroblasts", "conditions": "1 µM, unit not given", "how to read": "baseline: DMSO", "endpoint": "remaining activity", "result": "1.12 and 1.11 and 1.22 and 1.19"}
{"Structure (SMILES)": "COC(=O)c1cc(Cl)ccc1N(C)C(=O)c1ccn2ncc(-c3ccc(C(N)=O)cc3)c2c1", "target or system": "Cryptosporidium parvum", "test": "qPCR", "system": "IFN-γ knockout mouse, feces", "conditions": "dose not given", "endpoint": "oocyst shedding", "result": "3.45 log oocysts/g feces"}
{"note": "A few entries again (block 2):"}
{"target": "NEK2 (Homo sapiens, UniProt P51955)", "remaining activity [%]": 87.7}
{"target": "CAMK2D (Homo sapiens, UniProt Q13557)", "remaining activity [%]": 108}
{"target": "Tyrosine-protein kinase Lyn, isoform B (LYN, Homo sapiens, UniProt P07948)", "remaining activity [%]": 97.9}
{"target": "TGFBR2 (Homo sapiens, UniProt P37173)", "remaining activity [%]": 118}
{"target": "PRKACA (Homo sapiens, UniProt P17612)", "remaining activity [%]": 97.1}
